{"data": "Assay results gathered from unrelated publications", "note": "Parts stem from different laboratories: compare values within a part only. Positions count from the first letter of the parent shown."}
{"data": "Study 1", "target": "Prothrombin, mature alpha-thrombin (F2, Homo sapiens, UniProt P00734)", "technique": "aptamer microarray, sandwich", "form": "DNA with 2'F-ANA", "matrix": "in vitro", "concentration": "200 nM", "notes": "whole 15-mer aptamer, many near background", "together with": "Cy3 exosite-II aptamer, 400 nM", "reading": "higher = stronger binding", "sequence": "GGTTGGTGTGGTTGG"}
{"Modification": "2'F-ANA at 2 5 9 13 14 15", "mean fluorescence intensity": "62.8 a.u."}
{"Modification": "2'F-ANA at 1 6 10 14", "mean fluorescence intensity": "46.4 a.u."}
{"Modification": "2'F-ANA at 6 10 11 12 14", "mean fluorescence intensity": "118 a.u."}
{"Modification": "2'F-ANA at 6 7 9 12 13 15", "mean fluorescence intensity": "603 a.u."}
{"Modification": "2'F-ANA at 1 3 4 8 9 12", "mean fluorescence intensity": "388 a.u."}
{"Modification": "2'F-ANA at 1 4 7 12 13 15", "mean fluorescence intensity": "215 a.u."}
{"Modification": "2'F-ANA at 1 2 3 4 6 7 8 10 11 12 15", "mean fluorescence intensity": "88.9 a.u."}
{"Modification": "2'F-ANA at 1 5 8 9 11 13 15", "mean fluorescence intensity": "50.6 a.u."}
{"data": "Study 2", "target": "CCNB3, cyclin fold, Cln2 fusion (human)", "technique": "yeast growth competition, sequencing", "matrix": "yeast", "notes": "weak parent motif", "reference": "not given", "reading": "higher = stronger binding", "starting sequence": "WEE1 docking peptide (human); HKTFRKLRLFDTP; partner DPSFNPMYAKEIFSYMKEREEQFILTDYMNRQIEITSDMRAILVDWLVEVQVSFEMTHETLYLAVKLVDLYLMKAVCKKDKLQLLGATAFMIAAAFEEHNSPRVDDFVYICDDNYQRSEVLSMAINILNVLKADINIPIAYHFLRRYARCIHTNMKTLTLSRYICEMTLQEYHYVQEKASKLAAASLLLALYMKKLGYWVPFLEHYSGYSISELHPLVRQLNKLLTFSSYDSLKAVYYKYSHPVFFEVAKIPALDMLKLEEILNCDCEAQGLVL"}
{"Variant": "H1K", "normalised enrichment score": 0.119}
{"Variant": "T12D", "normalised enrichment score": 0.652}
{"Variant": "L9Q", "normalised enrichment score": 0.266}
{"Variant": "P13G", "normalised enrichment score": -0.448}
{"Variant": "F10T", "normalised enrichment score": 0.0514}
{"Variant": "K6R", "normalised enrichment score": 0.255}
{"Variant": "L7K", "normalised enrichment score": -0.455}
{"data": "Study 3", "target": "Histone acetyltransferase KAT6A, winged helix 1, GST fusion (KAT6A, Homo sapiens, UniProt Q92794, residues 1-85)", "technique": "protein binding microarray", "form": "double-stranded DNA, one strand shown", "matrix": "in vitro", "concentration": "not given", "notes": "8-mer, flanks averaged, mean of 2 arrays, mostly near background", "reference": "not given", "reading": "higher = stronger binding", "Target sequence (chain)": "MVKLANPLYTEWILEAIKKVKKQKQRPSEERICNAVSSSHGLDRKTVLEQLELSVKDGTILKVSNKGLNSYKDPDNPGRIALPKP"}
{"Sequence": "GGCGAACA", "E-score": 0.157}
{"Sequence": "CCACTAGG", "E-score": -0.147}
{"Sequence": "GGGGATGA", "E-score": -0.0675}
{"Sequence": "CCTATATC", "E-score": -0.0836}
{"Sequence": "CTGGATGA", "E-score": -0.249}
{"Sequence": "ATCGTCCG", "E-score": 0.098}
{"Sequence": "AAGCGCGA", "E-score": 0.302}
{"Sequence": "AAAGATAG", "E-score": -0.136}
{"data": "Mixed results"}
{"Molecule": "PhoQ, residues 284 288 289 292 302 303 QWGLFV", "target": "PhoP, residues 12 14 15 18 19 LYHSL (Escherichia coli, UniProt P23836)", "assay": "Sort-seq, refers to: YFP reporter", "test system": "E. coli", "setting": "PhoQ-PhoP variant library, together with: 10 µM Mg2+", "how to read": "reference: high Mg2+ state, higher = stronger signaling", "measurement": "fold induction", "result": 36.1}
{"note": "A few entries again (study 1):"}
{"Modification": "2'F-ANA at 1 4 7 12 13 15", "mean fluorescence intensity": "215 a.u."}
{"Modification": "2'F-ANA at 6 10 11 12 14", "mean fluorescence intensity": "118 a.u."}
